# Measurements of several laboratories.
# Every numbered part comes from another study and shows a few of its results, in no order. Changes are numbered by the printed parent chain.
# Chain of UniProt P22607 (whole entry, unmodified, looked up): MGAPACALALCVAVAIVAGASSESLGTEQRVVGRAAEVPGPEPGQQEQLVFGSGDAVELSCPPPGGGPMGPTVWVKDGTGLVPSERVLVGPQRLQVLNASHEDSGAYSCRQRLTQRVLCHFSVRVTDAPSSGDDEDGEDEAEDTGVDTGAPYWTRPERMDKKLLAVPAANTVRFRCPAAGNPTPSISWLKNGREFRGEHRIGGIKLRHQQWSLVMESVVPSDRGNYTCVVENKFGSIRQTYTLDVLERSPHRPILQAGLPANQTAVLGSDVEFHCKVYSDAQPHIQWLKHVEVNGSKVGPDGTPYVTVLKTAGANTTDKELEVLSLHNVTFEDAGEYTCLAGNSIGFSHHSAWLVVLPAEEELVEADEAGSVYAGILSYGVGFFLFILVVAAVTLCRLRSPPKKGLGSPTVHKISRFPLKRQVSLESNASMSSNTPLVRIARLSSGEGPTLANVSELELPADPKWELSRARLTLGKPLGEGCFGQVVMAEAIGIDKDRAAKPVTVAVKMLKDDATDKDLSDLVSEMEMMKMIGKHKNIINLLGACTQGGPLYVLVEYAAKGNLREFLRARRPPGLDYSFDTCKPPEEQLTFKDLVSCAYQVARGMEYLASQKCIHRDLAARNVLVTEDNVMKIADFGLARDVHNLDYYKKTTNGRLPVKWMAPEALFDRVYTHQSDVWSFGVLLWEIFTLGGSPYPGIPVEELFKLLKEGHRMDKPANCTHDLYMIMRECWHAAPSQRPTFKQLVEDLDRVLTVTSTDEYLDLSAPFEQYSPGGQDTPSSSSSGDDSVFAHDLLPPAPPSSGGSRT
# Chain of UniProt P23458 (whole entry, looked up): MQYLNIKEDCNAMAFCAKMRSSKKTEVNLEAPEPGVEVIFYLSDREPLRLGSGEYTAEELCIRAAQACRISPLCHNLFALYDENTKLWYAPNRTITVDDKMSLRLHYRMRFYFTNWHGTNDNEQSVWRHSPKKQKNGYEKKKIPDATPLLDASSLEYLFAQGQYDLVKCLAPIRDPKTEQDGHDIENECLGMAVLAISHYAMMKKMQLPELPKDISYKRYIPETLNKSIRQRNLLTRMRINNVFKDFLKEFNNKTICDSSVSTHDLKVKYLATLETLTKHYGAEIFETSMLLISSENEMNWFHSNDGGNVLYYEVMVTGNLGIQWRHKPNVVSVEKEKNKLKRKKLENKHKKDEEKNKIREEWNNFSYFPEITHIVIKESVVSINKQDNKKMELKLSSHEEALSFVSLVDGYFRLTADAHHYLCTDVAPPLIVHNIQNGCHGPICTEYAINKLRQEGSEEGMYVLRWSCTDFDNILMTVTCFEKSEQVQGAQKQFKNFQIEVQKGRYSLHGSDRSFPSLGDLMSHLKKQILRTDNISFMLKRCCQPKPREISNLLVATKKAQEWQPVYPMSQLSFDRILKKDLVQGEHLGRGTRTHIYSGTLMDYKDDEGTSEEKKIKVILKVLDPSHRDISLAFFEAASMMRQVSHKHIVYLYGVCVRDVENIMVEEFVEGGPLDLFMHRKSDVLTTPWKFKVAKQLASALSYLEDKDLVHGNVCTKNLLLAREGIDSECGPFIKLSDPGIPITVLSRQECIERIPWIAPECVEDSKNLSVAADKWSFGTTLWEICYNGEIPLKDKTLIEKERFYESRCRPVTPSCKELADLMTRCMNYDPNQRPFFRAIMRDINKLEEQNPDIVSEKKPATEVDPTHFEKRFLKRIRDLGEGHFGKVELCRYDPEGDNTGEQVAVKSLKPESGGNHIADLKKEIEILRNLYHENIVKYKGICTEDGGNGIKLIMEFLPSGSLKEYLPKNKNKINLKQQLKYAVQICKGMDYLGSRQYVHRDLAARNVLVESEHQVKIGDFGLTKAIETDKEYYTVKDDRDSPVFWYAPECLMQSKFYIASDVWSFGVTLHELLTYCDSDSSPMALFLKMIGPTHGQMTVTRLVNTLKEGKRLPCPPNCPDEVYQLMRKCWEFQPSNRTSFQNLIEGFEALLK
# Chain of UniProt P23443 (whole entry, looked up): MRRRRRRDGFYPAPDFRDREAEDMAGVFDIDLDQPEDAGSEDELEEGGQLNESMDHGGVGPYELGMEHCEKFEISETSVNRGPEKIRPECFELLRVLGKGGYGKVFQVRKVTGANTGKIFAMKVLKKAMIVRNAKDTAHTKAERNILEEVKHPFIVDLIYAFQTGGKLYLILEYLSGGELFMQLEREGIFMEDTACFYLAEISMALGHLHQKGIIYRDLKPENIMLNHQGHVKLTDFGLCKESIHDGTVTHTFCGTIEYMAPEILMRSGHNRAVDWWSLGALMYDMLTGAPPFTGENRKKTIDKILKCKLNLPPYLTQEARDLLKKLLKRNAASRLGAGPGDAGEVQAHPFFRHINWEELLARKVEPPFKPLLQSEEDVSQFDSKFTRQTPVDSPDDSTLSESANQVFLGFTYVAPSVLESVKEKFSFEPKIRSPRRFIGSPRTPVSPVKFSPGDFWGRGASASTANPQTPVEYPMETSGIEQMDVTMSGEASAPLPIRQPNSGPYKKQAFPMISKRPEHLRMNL
# Chain of UniProt O15264 (whole entry, looked up): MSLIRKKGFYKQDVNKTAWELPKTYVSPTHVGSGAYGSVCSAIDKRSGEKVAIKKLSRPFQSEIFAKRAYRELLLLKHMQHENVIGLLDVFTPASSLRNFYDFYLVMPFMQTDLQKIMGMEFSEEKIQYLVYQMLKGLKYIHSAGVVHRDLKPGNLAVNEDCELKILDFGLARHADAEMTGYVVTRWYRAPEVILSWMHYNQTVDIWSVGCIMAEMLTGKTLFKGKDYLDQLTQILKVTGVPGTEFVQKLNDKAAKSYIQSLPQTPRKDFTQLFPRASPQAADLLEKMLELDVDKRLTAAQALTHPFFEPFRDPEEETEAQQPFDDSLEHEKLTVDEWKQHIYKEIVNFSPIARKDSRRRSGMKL
# Chain of UniProt Q16539 (whole entry, looked up): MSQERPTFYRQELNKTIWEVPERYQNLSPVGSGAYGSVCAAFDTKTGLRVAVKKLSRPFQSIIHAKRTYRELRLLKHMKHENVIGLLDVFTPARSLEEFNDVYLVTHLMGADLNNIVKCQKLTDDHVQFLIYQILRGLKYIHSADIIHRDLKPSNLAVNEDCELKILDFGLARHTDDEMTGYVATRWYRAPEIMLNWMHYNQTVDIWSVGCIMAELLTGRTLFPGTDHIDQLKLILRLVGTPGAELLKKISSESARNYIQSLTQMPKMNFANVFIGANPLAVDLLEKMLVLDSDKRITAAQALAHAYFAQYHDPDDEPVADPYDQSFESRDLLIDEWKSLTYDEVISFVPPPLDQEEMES
# Chain of UniProt P06241 (whole entry, looked up): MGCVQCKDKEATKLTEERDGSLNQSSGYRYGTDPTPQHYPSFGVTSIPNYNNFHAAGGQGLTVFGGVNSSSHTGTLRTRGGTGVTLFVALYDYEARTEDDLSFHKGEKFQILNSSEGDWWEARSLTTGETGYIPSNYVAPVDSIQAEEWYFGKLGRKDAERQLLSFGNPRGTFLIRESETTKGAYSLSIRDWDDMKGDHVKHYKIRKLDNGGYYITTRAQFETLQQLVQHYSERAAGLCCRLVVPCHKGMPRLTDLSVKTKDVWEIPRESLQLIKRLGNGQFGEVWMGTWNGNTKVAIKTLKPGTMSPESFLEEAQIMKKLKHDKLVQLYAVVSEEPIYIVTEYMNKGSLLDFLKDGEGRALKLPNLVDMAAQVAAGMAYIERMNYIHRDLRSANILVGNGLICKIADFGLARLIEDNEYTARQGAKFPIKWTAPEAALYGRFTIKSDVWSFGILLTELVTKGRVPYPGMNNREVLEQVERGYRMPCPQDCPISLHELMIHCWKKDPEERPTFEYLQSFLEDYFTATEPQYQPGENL
# Chain of UniProt Q96PN8 (whole entry, looked up): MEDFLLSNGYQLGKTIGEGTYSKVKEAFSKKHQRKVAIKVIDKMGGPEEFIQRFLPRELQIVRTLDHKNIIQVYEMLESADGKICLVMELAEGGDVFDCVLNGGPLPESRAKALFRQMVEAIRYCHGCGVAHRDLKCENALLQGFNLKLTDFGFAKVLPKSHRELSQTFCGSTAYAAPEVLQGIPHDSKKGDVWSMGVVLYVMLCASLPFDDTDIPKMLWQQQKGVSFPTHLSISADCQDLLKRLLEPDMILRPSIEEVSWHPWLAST

# Block 1
# Target: ABI1, truncated, D143A, DHFR fusion (Arabidopsis thaliana)
# Method: DHFR PCA, deep sequencing
# Medium: yeast
# Notes: methotrexate growth selection, single substitutions
# Together with: (+)-ABA 0.032 µM
# Baseline: wild-type fitted maximum
# Reading: higher = stronger binding
# Starting sequence: PYL1, truncated, DHFR fusion (Arabidopsis thaliana); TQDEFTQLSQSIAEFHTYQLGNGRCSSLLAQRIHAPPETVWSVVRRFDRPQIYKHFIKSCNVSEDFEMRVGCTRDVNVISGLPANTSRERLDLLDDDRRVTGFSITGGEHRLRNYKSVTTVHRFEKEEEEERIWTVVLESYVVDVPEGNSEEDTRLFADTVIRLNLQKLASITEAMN
Variant,relative binding score [%]
E128K,24.2
A30D,2.33
G21K,21.7
R98V,2.58
S171Q,38.7
P50G,-3.16
E109R,1.12
V161H,39.6

# Block 2
# Target: Mitogen-activated protein kinase kinase kinase 10 (MAP3K10, Homo sapiens, UniProt Q02779)
# Chain of UniProt Q02779 (whole entry, looked up): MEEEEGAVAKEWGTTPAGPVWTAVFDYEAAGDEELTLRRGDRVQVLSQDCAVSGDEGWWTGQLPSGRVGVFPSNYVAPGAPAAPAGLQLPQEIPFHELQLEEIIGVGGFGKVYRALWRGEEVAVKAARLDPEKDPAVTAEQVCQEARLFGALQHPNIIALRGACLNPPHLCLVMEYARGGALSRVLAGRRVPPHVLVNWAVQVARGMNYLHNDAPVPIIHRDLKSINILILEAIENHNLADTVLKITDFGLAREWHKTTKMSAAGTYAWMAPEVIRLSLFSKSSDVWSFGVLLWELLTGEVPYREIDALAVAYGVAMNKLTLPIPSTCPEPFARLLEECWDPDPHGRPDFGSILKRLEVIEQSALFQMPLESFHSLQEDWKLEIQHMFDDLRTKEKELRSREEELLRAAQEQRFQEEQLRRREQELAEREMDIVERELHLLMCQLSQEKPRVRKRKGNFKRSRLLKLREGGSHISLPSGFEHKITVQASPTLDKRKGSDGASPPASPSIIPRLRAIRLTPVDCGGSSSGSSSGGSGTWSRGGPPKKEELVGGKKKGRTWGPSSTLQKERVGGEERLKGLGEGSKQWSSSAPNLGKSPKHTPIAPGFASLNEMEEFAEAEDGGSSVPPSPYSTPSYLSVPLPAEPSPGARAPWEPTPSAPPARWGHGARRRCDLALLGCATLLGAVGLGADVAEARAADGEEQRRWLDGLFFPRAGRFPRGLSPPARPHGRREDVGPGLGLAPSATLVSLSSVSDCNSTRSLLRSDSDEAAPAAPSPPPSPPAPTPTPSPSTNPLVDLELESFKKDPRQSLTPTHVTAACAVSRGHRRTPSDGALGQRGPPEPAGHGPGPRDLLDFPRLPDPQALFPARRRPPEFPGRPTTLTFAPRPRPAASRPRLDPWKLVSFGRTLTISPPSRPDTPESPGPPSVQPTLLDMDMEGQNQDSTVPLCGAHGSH
# Read-out: enzyme activity
# Action: inhibitor
# Tested at: 0.5 µM
# Baseline: control
Structure (SMILES),remaining activity [%]
N#CC(C#N)=C(N)/C(C#N)=C/c1ccc(O)cc1,98
O=C(CCCc1ccc(-c2ccccc2F)cc1)Nc1ccc(O)cc1,88.8
Cc1nc(-c2ccccc2)c(-c2ccncc2)o1,101
O=C1NC(=O)C(c2cn(CCCO)c3ncccc23)=C1c1cnccn1,91.3
COc1ccc(C(=O)Nc2sc3c(c2C(N)=O)CCCC3)cc1OC,96.6
O=C(O)c1ccc2c3c1cccc3c(=O)n1c3ccccc3nc21,99.3
Nc1ncnc2n[nH]c(Nc3ccc(F)cc3)c12,85.9
O=C(Nc1cccc(Nc2cc(Nc3cccc(C(F)(F)F)c3)ncn2)c1)C1CC1,101
CC(C)[C@H](CO)Nc1nc(Nc2cc(N)cc(Cl)c2)c2ncn(C(C)C)c2n1,95.1
Cc1ccc(Nc2nccc(N(C)c3ccc4c(C)n(C)nc4c3)n2)cc1S(N)(=O)=O,28.5
Cn1sc(=O)n(Cc2ccccc2)c1=O,99.5
OCC(O)CCON=C1C(c2c(O)[nH]c3ccccc23)=Nc2ccccc21 (stereo not shown),86.9
Nc1[nH]nc2nc3ccccc3nc12,93.1
Cc1ccc(NC(=O)c2ccc(CN3CCN(C)CC3)cc2)cc1Nc1nc(-c2cccnc2)cs1,102
CN(C)c1ccc(C=C2C(=O)Nc3ccccc32)cc1,96.6

# Block 3
# Structure (SMILES): O=C(Nc1cccnn1)N1CC(C/C=C/c2cncc(Oc3ccc(C(F)(F)F)cn3)n2)C1
# Read-out: cell-free assay
# Method: competition with immobilised ligand
# Tested at: 1 µM
target,remaining binding
"Fibroblast growth factor receptor 3 (FGFR3, Homo sapiens, UniProt P22607, G697C)",100%
"Ribosomal protein S6 kinase beta-1 (RPS6KB1, Homo sapiens, UniProt P23443)",71%
"Serine/threonine-protein kinase Nek9 (NEK9, Homo sapiens, UniProt Q8TD19)",100%
"Mitogen-activated protein kinase kinase kinase 9 (MAP3K9, Homo sapiens, UniProt P80192)",100%
"Tyrosine-protein kinase ABL1, non-phosphorylated (ABL1, Homo sapiens, UniProt P00519, Q252H)",100%
"Serine/threonine-protein kinase 33 (STK33, Homo sapiens, UniProt Q9BYT3)",100%
"Tyrosine-protein kinase JAK1, JH1 (JAK1, Homo sapiens, UniProt P23458)",100%
"Mitogen-activated protein kinase 13 (MAPK13, Homo sapiens, UniProt O15264)",100%
"Phosphatidylinositol 4,5-bisphosphate 3-kinase catalytic subunit alpha isoform (PIK3CA, Homo sapiens, UniProt P42336)",100%
"Testis-specific serine/threonine-protein kinase 3 (TSSK3, Homo sapiens, UniProt Q96PN8)",98%
"Tyrosine-protein kinase receptor UFO (AXL, Homo sapiens, UniProt P30530)",100%
"Serine/threonine-protein kinase Nek1 (NEK1, Homo sapiens, UniProt Q96PY6)",100%
"Tyrosine-protein kinase Fyn (FYN, Homo sapiens, UniProt P06241)",100%
"Mitogen-activated protein kinase 14 (MAPK14, Homo sapiens, UniProt Q16539)",100%
"MAP/microtubule affinity-regulating kinase 3 (MARK3, Homo sapiens, UniProt P27448)",100%
"Serine/threonine-protein kinase 25 (STK25, Homo sapiens, UniProt O00506)",91%
"Mitogen-activated protein kinase 9 (MAPK9, Homo sapiens, UniProt P45984)",72%
"Cyclin-dependent kinase 3 (CDK3, Homo sapiens, UniProt Q00526)",100%

# Block 4
# Target: RNA binding protein fox-1 homolog 2, RRM domain, GST-SBP tag (RBFOX2, Homo sapiens, UniProt O43251-10, residues 100-194)
# Method: RNA Bind-n-Seq
# Molecule type: RNA
# Medium: in vitro
# Tested at: 365 nM
# Notes: natural RNA segment, single round, ends assumed
# Baseline: no-protein control
# Reading: higher = stronger binding
# Construct (chain): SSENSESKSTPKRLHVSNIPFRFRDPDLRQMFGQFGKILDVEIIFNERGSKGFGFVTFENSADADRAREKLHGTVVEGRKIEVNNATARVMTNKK
Sequence,RBNS enrichment (R)
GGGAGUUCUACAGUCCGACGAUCGAAGACAGCAAACUGGUAAGGUUCAUUCCUGGCUCGGUGCCAGGAACAUUUGUGUUUUGGAGCUCACUUUUAGUUUUGAAACGGCCUUUGCUCGUUAUAUUGUGAUCCAGUGGAAUUCUCGGGUGCCAA,0.35
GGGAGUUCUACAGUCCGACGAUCUAAUCAGCUGGGCGUGGUGGCUCACGCCUGUAAUCCCAGCACUUUGGGAGGCCAAGGUAGGUGGAUACCUGAGGUCAGGAGUUCAAGACCAGCCUGGCCAACAUGGUGAAUGGAAUUCUCGGGUGCCAA,0.245
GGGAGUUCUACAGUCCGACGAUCUUAAUCCCCAGGUGUGUUAGUCCCAGCCUAGUUUGGUGCUCGAGGUGAGAGGGGAUUUGAAUCUGUUUGCAAAUUGUCCAACCCACCAGGUCAACGUGAGGGGCUUACAUUGGAAUUCUCGGGUGCCAA,0.434
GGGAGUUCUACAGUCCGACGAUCUACAUUAAAAAACAAACCUCUCUCUAUAUAUAUUUAUAAAUGAGAACUGUUGGAUGACACCUUUGACAUAUCAGCCAAUAUCAAUCAAGCUGAAGACUCCAGACACUGUCUGGAAUUCUCGGGUGCCAA,0.588
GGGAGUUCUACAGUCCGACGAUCAAACUACAGCAUCAUUGCAUACUUCUUGAUGGUAAUAAAUUUGAAUAAUCAAGAUUUCUUACACACUGGCCUCUGUCUCAGCUCCUGUAUCUAGAGUGUGGUAUCUUAAGUGGAAUUCUCGGGUGCCAA,4.87
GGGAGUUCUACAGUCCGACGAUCACUGGUACACUUGAUCUUAUGUCCAUAUGAAAGUGCAAAUCUUUAUUAAUUUGGAUUGCCUGAGCAGUGUGUAUCCCAUGAUGAUGAAGGGAAAUGGAGAGAUUUUUCCUUGGAAUUCUCGGGUGCCAA,0.274
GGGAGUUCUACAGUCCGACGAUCCACCUCCUCUUGUGGGAAGGAGGUCUCAGCCCCACCUCGCAUCUUCACCUGCCCUUGGUGUGGACACACCCUCUCAUGCUACCAGCACCAUAAUCCAGUGGGGGUGACUGUGGAAUUCUCGGGUGCCAA,0.582
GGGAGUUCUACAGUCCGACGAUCAGUCAUAGAAAUCAGUCUCUCUGGUUUGUUUUGUAUUAUGUUGUACAUCAUUAAAGAUCUAAAUACAAAGGAUAUACAGUCUUGAAUCUAAAAUAAUUUGCUAACUAACUUGGAAUUCUCGGGUGCCAA,0.587
